Measured values gathered from unrelated publications.
Each line is one published result; not all experiments were run side by side.
Target: Cannabinoid receptor 1 (CNR1, Homo sapiens, UniProt P21554)
Sequence of UniProt P21554 (whole entry, looked up): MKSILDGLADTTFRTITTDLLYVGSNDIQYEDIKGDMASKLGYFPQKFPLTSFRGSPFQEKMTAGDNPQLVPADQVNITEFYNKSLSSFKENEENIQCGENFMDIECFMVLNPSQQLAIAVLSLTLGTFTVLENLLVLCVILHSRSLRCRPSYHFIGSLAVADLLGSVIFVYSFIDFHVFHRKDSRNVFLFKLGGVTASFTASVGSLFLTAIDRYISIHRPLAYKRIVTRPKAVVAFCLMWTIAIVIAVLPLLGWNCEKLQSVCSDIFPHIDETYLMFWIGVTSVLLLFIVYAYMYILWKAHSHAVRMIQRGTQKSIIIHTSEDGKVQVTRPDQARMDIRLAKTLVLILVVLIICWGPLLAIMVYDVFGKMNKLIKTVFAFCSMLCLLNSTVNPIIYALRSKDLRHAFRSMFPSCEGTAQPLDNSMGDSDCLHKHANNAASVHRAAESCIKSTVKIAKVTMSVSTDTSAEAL

SMILES | test | conditions | Ki
CCCCCn1cc(C(=O)NC23CC4CC(CC(C4)C2)C3)c2ccccc21 | ligand displacement in cells, radioligand |  | 0.0676 µM
CCCCCc1cc(OC(=O)C(NC(=O)CCC(=O)O)C(C)C)c2c(c1)OC(C)(C)C1CCC(C)=CC21 (stereo not drawn) | ligand displacement, radioligand |  | 0.96 µM
O=C(c1ccc2c(c1)c1ccccc1n2CCN1CCOCC1)c1cccc2ccccc12 | ligand displacement, radioligand | cell membranes | 0.0447 µM
CCCCCn1cc(C(=O)c2ccc(OC)cc2)c2ccccc21 | ligand displacement, radioligand | cell membranes | 7.3 µM
O=C(c1ccc2c(c1)c1ccccc1n2CC1CCOCC1)c1cccc2ccccc12 | ligand displacement, radioligand | cell membranes | 0.00479 µM
CCOC(=O)C(CC)(CC)NC(=O)c1ccc(C2CC2)c(Cc2ccc(F)cc2)n1 | ligand displacement, radioligand | cell membranes | 0.0042 µM
CCCCCCn1c2ccccc2c2cc(C(=O)c3cccc4ccccc34)ccc21 | ligand displacement, radioligand | cell membranes | 0.0692 µM
CCOC(=O)[C@](CC)(CCCSCCOCCOCCNC(=O)c1ccc(-c2c3ccc(=N)c(S(=O)(=O)O)c-3oc3c(S(=O)(=O)O)c(N)ccc23)c(C(=O)O)c1)NC(=O)c1ccc(C2CC2)c(Cc2ccc(F)cc2)n1 | ligand displacement, radioligand | cell membranes | 0.321 µM
O=C(c1cccc2ccccc12)c1nc2ccccc2n1CCCCCF | ligand displacement in cells, radioligand |  | 0.0541 µM
CCCCCn1c2ccccc2c2cc(C(=O)c3ccncc3)ccc21 | ligand displacement, radioligand | cell membranes | 0.575 µM
CCCCn1cc(C(=O)c2cccc3ccccc23)c2ccccc21 |  |  | 0.0711 µM
CC1=C[C@H]2c3c(O)cc(CCc4ccccc4)cc3OC(C)(C)[C@H]2CC1 | ligand displacement, radioligand | cell membranes | 0.481 µM
